Assay results collected from several papers.
A part holds a random share of what one study measured. Positions count from the first letter of the parent shown.

Sample 1 — method: protein binding microarray; form: double-stranded DNA, one strand shown; medium: in vitro; concentration: not given; baseline: not given; direction: higher = stronger binding
Target: Histone acetyltransferase KAT6A, winged helix 1, GST fusion (KAT6A, Homo sapiens, UniProt Q92794, residues 1-85)
Notes: 8-mer, flanks averaged, mean of 2 arrays, mostly near background
Construct (chain): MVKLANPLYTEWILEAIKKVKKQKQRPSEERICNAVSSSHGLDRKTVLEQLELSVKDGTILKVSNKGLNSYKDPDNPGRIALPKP
Sequence	E-score
CATGGTGA	-0.0369
AGTATCCA	-0.203
AGAGTTCG	-0.108
CTTTTAAC	-0.0265
CGGATGGC	0.137
CTCTTGCC	-0.159
CGATCATC	-0.0149
GCCCCCGC	0.395
AGGGGTCA	-0.256
ACTCTAAA	-0.172

Sample 2 — target: CEP164, C-terminal peptide (human); method: DHFR complementation, deep sequencing; medium: yeast; baseline: wild type; direction: higher = weaker binding
Notes: single substitutions, model-inferred values
Parent: PDZK1, PDZ domain 2 (human); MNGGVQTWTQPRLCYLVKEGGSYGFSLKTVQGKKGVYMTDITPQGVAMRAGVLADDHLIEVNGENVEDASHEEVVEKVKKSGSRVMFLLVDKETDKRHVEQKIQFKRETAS; partner HNRVKVYRF
Substitution	binding free energy change
V5H	-0.00377 kcal/mol
E100G	-0.142 kcal/mol
K92A	-0.224 kcal/mol
H71S	0.0854 kcal/mol
V85E	1.64 kcal/mol
V46D	1.56 kcal/mol
F25D	1.56 kcal/mol
K28C	-0.701 kcal/mol
I41C	1.34 kcal/mol
Y37D	1.56 kcal/mol
I103A	-0.115 kcal/mol
R107Q	-0.115 kcal/mol

Sample 3 — method: DHFR PCA, deep sequencing; medium: yeast; with: (+)-ABA 0.39 µM; baseline: wild-type fitted maximum; direction: higher = stronger binding
Target: ABI1, truncated, D143A, DHFR fusion (Arabidopsis thaliana)
Notes: methotrexate growth selection, single substitutions
Parent: PYL1, truncated, DHFR fusion (Arabidopsis thaliana); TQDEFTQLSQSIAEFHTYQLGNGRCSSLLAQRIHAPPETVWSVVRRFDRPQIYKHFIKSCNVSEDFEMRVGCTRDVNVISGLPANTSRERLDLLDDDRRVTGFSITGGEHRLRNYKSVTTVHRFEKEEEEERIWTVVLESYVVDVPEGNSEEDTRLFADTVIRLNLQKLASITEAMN; partner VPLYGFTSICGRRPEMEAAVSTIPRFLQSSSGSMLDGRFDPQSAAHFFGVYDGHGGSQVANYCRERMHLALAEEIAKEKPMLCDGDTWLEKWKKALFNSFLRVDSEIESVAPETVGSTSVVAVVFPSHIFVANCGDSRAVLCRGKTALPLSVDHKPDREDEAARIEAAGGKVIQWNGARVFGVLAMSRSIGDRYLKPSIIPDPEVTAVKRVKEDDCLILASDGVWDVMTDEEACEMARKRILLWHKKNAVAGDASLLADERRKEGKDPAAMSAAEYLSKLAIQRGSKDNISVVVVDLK
Substitution	relative binding score
L169D	-13.8%
I172E	-3.49%
L166W	14.2%
S87P	13.8%
T101I	76.6%
K168W	35.7%
Y18L	-3.21%
K168Q	33.9%
R132G	72.5%
E152R	10.2%
E147Q	30.1%
F103H	0.917%
A30T	30.6%

Single results of other studies
Substance	target	test	test system	conditions	scale	measurement	result
PhoQ, residues 284 288 289 292 302 303 GNNTDL	PhoP, residues 12 14 15 18 19 MHTVL (Escherichia coli, UniProt P23836)	Sort-seq, refers to: YFP reporter	E. coli	PhoQ-PhoP variant library, with: 10 µM Mg2+	baseline: high Mg2+ state, higher = stronger signaling	fold induction	4.61
